{"data": "Experimental data of several laboratories", "note": "Each numbered part is a random draw from the data of one study; scales do not carry over between parts. Positions count from the first letter of the parent shown."}
{"data": "Set 1", "target": "Ras GTPase-activating protein-binding protein 1, full length (G3BP1, Homo sapiens, UniProt Q13283)", "method": "RNA Bind-n-Seq", "form": "RNA", "medium": "in vitro", "tested at": "200 nM", "setting": "whole 134-nt RNA, ends assumed", "with": "150 mM LiCl", "baseline": "input library", "reading": "higher = stronger binding", "each molecule": "7-deaza-guanosine replaces G", "shared flanks, not repeated": "GGGAGUUCUACAGUCCGACGAUC … UGGAAUUCUCGGGUGUCAAGG", "UniProt Q13283, sequence (whole entry, looked up)": "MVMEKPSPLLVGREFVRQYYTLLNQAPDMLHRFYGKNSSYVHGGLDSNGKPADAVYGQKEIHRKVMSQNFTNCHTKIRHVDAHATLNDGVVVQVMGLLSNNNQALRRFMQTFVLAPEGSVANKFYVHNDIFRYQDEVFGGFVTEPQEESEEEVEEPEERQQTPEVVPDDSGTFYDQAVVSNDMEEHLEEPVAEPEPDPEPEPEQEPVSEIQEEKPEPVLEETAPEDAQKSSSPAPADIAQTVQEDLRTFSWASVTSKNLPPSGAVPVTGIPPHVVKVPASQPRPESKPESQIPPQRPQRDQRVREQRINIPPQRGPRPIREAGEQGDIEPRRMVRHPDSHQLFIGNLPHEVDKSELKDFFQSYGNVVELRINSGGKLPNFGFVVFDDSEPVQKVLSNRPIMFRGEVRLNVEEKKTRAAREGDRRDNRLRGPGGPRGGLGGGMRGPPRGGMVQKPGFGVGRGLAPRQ"}
{"Sequence": "UAACUUUAGAGGAGGAUCUGAUGGAUAUGGCAGUGGACGUGGAUUUGGGGAUGGCUAUAAUGGGUAUGGAGAAGGACCUGGAGGUGGCAA", "log2 enrichment": -0.0462}
{"Sequence": "AGUCCUGUGCUACACAUCGUAUGUACCGAAUCGGGGAAAGGGGAAAAAGGGGAGGGGAAAGUAUUAUGUUACGCCGUUCGGAUCUGCACU", "log2 enrichment": 0.119}
{"Sequence": "UUCAGGAUGAAGAUGCAUCAGGGGGCGAUCAAGAUCAGGAAGAAAGAAGAUGGAACAAAAGGACUCAGCAGAUGCUUCAUGGUCUUCAGG", "log2 enrichment": -2.3}
{"Sequence": "UGGCCCUGGUGGCAUGCGGGGAGGAAGAGGUGGCCUCCUGGAUCGUGGUGGUCCCGGUGGAAUGUUCAGAGGUGGCCGUGGUGGAGACAG", "log2 enrichment": 0.172}
{"Sequence": "UCUGGACAUGCAGGUGGACCAGUCAGUGCCAGAGUAAGUUGUUGUUUUCUUAAAAGAAAAAAAAAAAUGUAAAAUCAUCUAACCCUAACC", "log2 enrichment": -0.702}
{"Sequence": "GCAGGAAGUAAAAACAAAUGGAGAUGCUUCGGAUAGUGGCAGGGGUGGGGGUUGCUAAGGAAAGGGUGGGAUGGGAGUGGGUAAAGAGUU", "log2 enrichment": 0.0976}
{"Sequence": "ACCAUGCAGGUGGGCAUCUUUGGGAAGUCGGGCAAGGGGGGGAUAGGGAGGGGGGUAACACUUUGGGAACAGGUGGUCCCAGGUCGUUUC", "log2 enrichment": 0.992}
{"Sequence": "AAGUCCUGUGCUACACAUCGUAUGUACCGAAUCGGGGUUUGGGGAGGGGAAAGGGGAAAGUAUUAUGUUACGCCGUUCGGAUCUGCACUU", "log2 enrichment": 0.0467}
{"Sequence": "CUGUGCUACACAUCGUAUGUACCGAAUCGGGGAAAAAAAGGGAAAAAAAGGGGAAAAAAAGGAAAGUAUUAUGUUACGCCGUUCGGAUCU", "log2 enrichment": 0.216}
{"Sequence": "UCCUGUGCUACACAUCGUAUGUACCGAAUCGGGGUUUUUUUGGGGAAAAAGGGGAGGGGAAAGUAUUAUGUUACGCCGUUCGGAUCUGCA", "log2 enrichment": 0.195}
{"Sequence": "CACAGACAACACGCACCCACACAGACACAGAGGGAAGGGGUUGGGAUGGGGACAGGGAGCACAGCAGGGCGGGGUAGGACCCCAGCCCCU", "log2 enrichment": 0.195}
{"data": "Set 2", "target": "CCNB2, cyclin fold, Cln2 fusion (human)", "method": "yeast growth competition, sequencing", "medium": "yeast", "setting": "weak parent motif", "baseline": "not given", "reading": "higher = stronger binding", "starting sequence": "FOXM1 docking peptide (human); PHLARPIKVESPP; partner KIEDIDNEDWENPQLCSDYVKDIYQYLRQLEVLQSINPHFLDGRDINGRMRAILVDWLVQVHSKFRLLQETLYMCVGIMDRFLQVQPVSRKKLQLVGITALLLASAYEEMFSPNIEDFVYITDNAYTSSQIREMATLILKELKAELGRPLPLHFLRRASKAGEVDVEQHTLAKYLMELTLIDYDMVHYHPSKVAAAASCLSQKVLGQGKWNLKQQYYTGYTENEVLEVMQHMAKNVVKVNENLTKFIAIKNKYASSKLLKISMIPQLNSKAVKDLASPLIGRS"}
{"Substitution": "P13A", "normalised enrichment score": -0.705}
{"Substitution": "P1A", "normalised enrichment score": -0.352}
{"Substitution": "H2A", "normalised enrichment score": -0.826}
{"Substitution": "P12A", "normalised enrichment score": -1.83}
{"Substitution": "K8A", "normalised enrichment score": -0.268}
{"Substitution": "S11A", "normalised enrichment score": -0.737}
{"data": "Set 3", "target": "RNA binding protein fox-1 homolog 2, RRM domain, GST-SBP tag (RBFOX2, Homo sapiens, UniProt O43251-10, residues 100-194)", "method": "RNA Bind-n-Seq", "form": "RNA", "medium": "in vitro", "tested at": "365 nM", "setting": "natural RNA segment, single round, ends assumed", "baseline": "no-protein control", "reading": "higher = stronger binding", "shared flanks, not repeated": "GGGAGUUCUACAGUCCGACGAUC … UGGAAUUCUCGGGUGCCAA", "Construct (chain)": "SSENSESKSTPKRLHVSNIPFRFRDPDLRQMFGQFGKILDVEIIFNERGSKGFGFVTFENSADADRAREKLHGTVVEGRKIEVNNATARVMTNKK"}
{"Sequence": "GUGAUACAUACGUGUAUUACUCGAUCACUGGAUGUGGAAGUACCCAUUCAUCACAUCUGCCUCAUAGCCCCCAUCUUUGCUGUGCUGAUAGGAUUUAGUUGUGUUUAGGA", "RBNS enrichment (R)": 0.267}
{"Sequence": "UGCCUGCGGAAGGUAGGAUUAGAUCAUUAGCUCAGUGACCUCCUAGGGUUUCGAUGUGCUAUGUUCUCAUCCUACAGUUGGUUUGGUAAUGAUCUGCAAGUCCCGGAGAG", "RBNS enrichment (R)": 2.01}
{"Sequence": "UGGAAAAGCUUGGAAGACCUUGGUCUCACCAUUUGUCUACAUUUGUGUGACCAUAAAAUGCUGGGAGCAUUGAGUUUUGUAAUGAUUUAAUGGGUGAGGAUUGCUUUCUC", "RBNS enrichment (R)": 0.469}
{"Sequence": "UUGCAGCAACCUUUCUCUCCUGUCUACCCUUUUAGUUUACUGUAUGCCAUGGUUUUGUUUUGGUUACAUUGAAAGAAAGUUAAUUUGGAAAAUUUGGGAGAAAUCUAAUC", "RBNS enrichment (R)": 0.659}
{"Sequence": "UCACGUUAUAAAUGUUUUGUAGUGAACCCAGGGUGGGUGAGGGGGAAGCAUCUGUCUCACAUAGGCUGUAAGCUCUCUGAGAGCAGGCACCUGUCAUCCCAGUCCAUCCC", "RBNS enrichment (R)": 0.343}
{"Sequence": "CUAGCCCUUAGAACUACCACCCUGAAGCAUCUUUGUUUCCUGUGUUCAGACGCAGACGAAGACCAACAUUGUUUUAUAUGUUGAAUUUAUAAAAUGCUAGUAAUUUAGAA", "RBNS enrichment (R)": 0.555}
{"Sequence": "UGUAACACAGCUGUAGCUGCCUAGAAUGCUCUGUAUACUUUAUAUUAAAAAUGCUCUGCAUUUCUUCCAGUGCAAUGAAAUUCAUAUGGUGUCCCACCUUAUUUAAUGAU", "RBNS enrichment (R)": 0.454}
{"Sequence": "CUGGUCCCAACCUGCAGACCCCACAGCAGUCAGUUGGUCAGGCCCUGCUGUAGAAGGUCACUUGGCUCCAUUGCCUGCUUCCAACCAAUGGGCAGGAGAGAAGGCCUUUA", "RBNS enrichment (R)": 0.431}
{"Sequence": "UUAAUUCAGUUUUAACCAGUGAAAACUCGUGGUUUUUCUGAAAGAAAAAAGAAAAGGGUUUCCUAUCUGGUAUUAUAUAUGUCAAAUAAAUGUAUAAAGUAACACCCAAA", "RBNS enrichment (R)": 0.636}
{"Sequence": "GGGCUAGAGAACAUACUUUACAUCUGACAUCCUUUGGCCUAACAACAUCUAUUAUUAUAGUGCUCAGCAGUGUGGGCAUUGAAGAGGCGCAGAAUGCUUUGAAAGAAACU", "RBNS enrichment (R)": 0.528}
{"Sequence": "GUUUUGUUUUGUAUUUCUUUGUUAUUUUAUUGGGAAGGUAAGCGGAAUGUGCUCAUAGACCAUCAGACGCUUGUCGAAGGCAGGUCCUAGUCAUGUAAUUGCACAGGACA", "RBNS enrichment (R)": 0.808}
{"Sequence": "CUGGGAUUACAGGCGUGAGCCACCGUGCCUGCCCCAGAAUGGUUUUUAAAGCCACAGUUGAGAGGCCACCCAUUGCCCGGCGCCUGGACAGUGAUCAUCUUGUUCAUCUU", "RBNS enrichment (R)": 0.365}
{"data": "Set 4", "target": "UBE2D1 UBC core domain (UniProt P51668)", "method": "yeast two-hybrid", "medium": "yeast", "setting": "mostly zero background", "baseline": "not given", "reading": "higher = stronger interaction", "B1": "RNF38 RING domain (UniProt Q9H0F5); chain PNNHQSEQTLCVVCMCDFESRQLLRVLPCNHEFHAKCVDKWLKANRTCPICRADASEVHRDS", "B2": "VPS41 RING domain (UniProt P49754); chain KGVLVDEENICESCLSPILPSDAAKPFSVVVFHCRHMFHKECLPMPSMNSAAQFCNICSAKNRGPGSAI", "B3": "RC3H1 RING domain (UniProt Q5TC82); chain QAPQWTDFLSCPICTQTFDETIRKPISLGCGHTVCKMCLNKLHRKACPFDQTTINTDIELL", "B4": "DTX4 RING domain (UniProt Q9Y2E6); chain QKVRHPPDEDCTICMERLTAPSGYKGPQPTVKPDLVGKLSRCGHVYHIYCLVAMYNNGNKDGSLQCPTCKTIYGVKTGTQ", "B5": "TRIM40 RING domain (UniProt Q6P9F5); chain LQKDNQEEGVCPICQESLKEAVSTNCGHLFCRVCLTQHVEKASASGVFCCPLCRKPCSEEVLG", "B6": "TRAF5 RING domain (UniProt O00463); chain FVERLEERYKCAFCHSVLHNPHQTGCGHRFCQHCILSLRELNTVPICPVDKEVIKSQEVFK", "B7": "NEURL1 RING domain (UniProt O76050); chain VTPGLGQWSDECTICYEHAVDTVIYTCGHMCLCYACGLRLKKALHACCPICRRPIKDIIKT", "Construct (chain)": "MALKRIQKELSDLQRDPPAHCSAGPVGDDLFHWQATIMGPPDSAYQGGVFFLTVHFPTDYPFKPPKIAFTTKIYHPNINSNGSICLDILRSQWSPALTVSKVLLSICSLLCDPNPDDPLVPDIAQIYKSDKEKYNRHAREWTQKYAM"}
{"Sequence": "B1 (RNF38 RING domain)", "lacZ reporter activity": 0}
{"Sequence": "MPIRALCTICSDFFDHSRDVAAIHCGHTFHLQCLIQWFETAPSRTCPQCRIQVGKRTIIN (TRAIP RING domain (UniProt Q9BWF2))", "lacZ reporter activity": 0}
{"Sequence": "QVDKAVFHMQSVKCLKCQEQKRAVLPCQHAALCELCAEGSECPICQPGRAHTLQS (UNK RING domain (UniProt Q9C0B0))", "lacZ reporter activity": 0}
{"Sequence": "B2 (VPS41 RING domain)", "lacZ reporter activity": 0}
{"Sequence": "GAAPGPEAAECLVCSELALLVLFSPCQHRTVCEECARRMKKCIRCQVVVSKKLRPD (MIB2 RING domain (UniProt Q96AX9))", "lacZ reporter activity": 0}
{"Sequence": "B3 (RC3H1 RING domain)", "lacZ reporter activity": 0}
{"Sequence": "B4 (DTX4 RING domain)", "lacZ reporter activity": 0}
{"Sequence": "B5 (TRIM40 RING domain)", "lacZ reporter activity": 0}
{"Sequence": "FQGDVDEDLICPICSGVLEEPVQAPHCEHAFCNACITQWFSQQQTCPVDRSVVTVAHLRP (RNF41 RING domain (UniProt Q9H4P4))", "lacZ reporter activity": 0}
{"Sequence": "B6 (TRAF5 RING domain)", "lacZ reporter activity": 0}
{"Sequence": "B7 (NEURL1 RING domain)", "lacZ reporter activity": 0}
{"note": "A few entries again (set 1):"}
{"Sequence": "AGUCCUGUGCUACACAUCGUAUGUACCGAAUCGGGGAAAGGGGAAAAAGGGGAGGGGAAAGUAUUAUGUUACGCCGUUCGGAUCUGCACU", "log2 enrichment": 0.119}
{"Sequence": "UUCAGGAUGAAGAUGCAUCAGGGGGCGAUCAAGAUCAGGAAGAAAGAAGAUGGAACAAAAGGACUCAGCAGAUGCUUCAUGGUCUUCAGG", "log2 enrichment": -2.3}
{"Sequence": "UGGCCCUGGUGGCAUGCGGGGAGGAAGAGGUGGCCUCCUGGAUCGUGGUGGUCCCGGUGGAAUGUUCAGAGGUGGCCGUGGUGGAGACAG", "log2 enrichment": 0.172}
